Measurements of several laboratories.
Every numbered part comes from another study and shows a few of its results, in no order. “And” joins repeats or separate records; there may be more than shown.
Chain of UniProt O08590 (whole entry, looked up): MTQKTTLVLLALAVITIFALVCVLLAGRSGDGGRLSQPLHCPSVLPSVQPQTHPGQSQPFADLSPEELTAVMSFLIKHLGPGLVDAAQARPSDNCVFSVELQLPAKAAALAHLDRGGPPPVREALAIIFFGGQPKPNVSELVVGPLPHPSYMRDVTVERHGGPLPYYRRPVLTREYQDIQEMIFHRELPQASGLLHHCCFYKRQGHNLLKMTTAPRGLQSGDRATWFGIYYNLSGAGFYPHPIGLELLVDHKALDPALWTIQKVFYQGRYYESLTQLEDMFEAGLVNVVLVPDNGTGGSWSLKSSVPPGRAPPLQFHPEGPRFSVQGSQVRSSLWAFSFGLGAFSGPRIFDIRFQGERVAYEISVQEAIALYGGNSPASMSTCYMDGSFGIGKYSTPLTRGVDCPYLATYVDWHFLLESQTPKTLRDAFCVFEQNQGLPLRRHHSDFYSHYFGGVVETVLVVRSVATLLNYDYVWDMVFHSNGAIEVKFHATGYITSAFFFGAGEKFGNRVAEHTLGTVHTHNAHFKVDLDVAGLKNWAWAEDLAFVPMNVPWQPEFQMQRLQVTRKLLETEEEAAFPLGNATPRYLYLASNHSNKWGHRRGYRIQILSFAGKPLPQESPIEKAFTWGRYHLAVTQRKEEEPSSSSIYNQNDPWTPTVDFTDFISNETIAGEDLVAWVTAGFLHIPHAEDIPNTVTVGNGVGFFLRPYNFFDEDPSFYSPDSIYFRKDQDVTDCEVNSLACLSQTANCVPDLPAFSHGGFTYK
Chain of UniProt Q8WXR4 (whole entry, looked up): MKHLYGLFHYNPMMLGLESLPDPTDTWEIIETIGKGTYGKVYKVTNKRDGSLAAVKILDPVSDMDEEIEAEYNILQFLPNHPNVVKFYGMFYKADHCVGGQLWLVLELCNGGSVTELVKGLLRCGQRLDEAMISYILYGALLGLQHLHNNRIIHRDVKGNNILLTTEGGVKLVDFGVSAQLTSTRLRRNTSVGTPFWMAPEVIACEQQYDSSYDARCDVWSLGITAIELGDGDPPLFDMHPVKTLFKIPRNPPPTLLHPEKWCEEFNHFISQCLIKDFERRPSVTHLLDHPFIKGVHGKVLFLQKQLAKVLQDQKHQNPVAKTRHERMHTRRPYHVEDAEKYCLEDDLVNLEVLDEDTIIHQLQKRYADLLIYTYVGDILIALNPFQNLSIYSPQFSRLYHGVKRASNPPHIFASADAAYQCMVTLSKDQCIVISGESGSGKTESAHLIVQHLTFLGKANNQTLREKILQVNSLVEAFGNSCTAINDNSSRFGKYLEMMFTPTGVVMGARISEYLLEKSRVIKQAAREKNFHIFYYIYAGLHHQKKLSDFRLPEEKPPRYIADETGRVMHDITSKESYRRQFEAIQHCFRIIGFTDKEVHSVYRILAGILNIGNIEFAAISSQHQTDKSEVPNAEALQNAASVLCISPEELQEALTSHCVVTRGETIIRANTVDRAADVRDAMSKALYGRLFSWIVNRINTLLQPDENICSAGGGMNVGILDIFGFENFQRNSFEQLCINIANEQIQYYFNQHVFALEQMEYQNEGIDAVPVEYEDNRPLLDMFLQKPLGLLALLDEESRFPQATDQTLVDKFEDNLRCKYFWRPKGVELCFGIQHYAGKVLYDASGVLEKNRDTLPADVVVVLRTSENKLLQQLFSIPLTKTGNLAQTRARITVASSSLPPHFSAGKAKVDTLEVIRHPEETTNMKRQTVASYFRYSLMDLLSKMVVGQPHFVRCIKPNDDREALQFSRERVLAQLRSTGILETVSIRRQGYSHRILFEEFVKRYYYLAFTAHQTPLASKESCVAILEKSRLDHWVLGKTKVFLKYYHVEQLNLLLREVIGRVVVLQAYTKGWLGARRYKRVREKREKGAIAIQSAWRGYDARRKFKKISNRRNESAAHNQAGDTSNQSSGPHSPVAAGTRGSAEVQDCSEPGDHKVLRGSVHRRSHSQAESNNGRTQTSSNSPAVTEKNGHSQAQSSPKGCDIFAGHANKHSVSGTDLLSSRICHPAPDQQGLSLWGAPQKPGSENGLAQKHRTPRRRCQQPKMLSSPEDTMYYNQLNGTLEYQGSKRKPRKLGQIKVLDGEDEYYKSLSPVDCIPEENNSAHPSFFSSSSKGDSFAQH

Sample 1
SMILES: CCN1/C(=C/C=C2\CCCC(/C=C/C3=[N+](CC)c4ccccc4C3(C)C)=C2NCCCCCCCCN2CCC(Nc3nc4ccccc4n3Cc3ccc(F)cc3)CC2)C(C)(C)c2ccccc21
Cell line: U-87 MG
Tested at: concentration not given
Baseline: DMSO
It gave 0.919 for “log2 fold change” (refers to: NFE2L1 mRNA).
refers to: PML mRNA — “log2 fold change”: -0.901.
For refers to: GPR176 mRNA: “log2 fold change” read 1.06.
The “log2 fold change” was -1.93 (refers to: TONSL mRNA).
The “log2 fold change” was -1.74 (refers to: CA9 mRNA).
The “log2 fold change” was 0.924 (refers to: SC5D mRNA).
refers to: PLK4 mRNA — “log2 fold change”: -2.21.
For refers to: EPHA4 mRNA: “log2 fold change” read -1.45.
It gave -1.34 for “log2 fold change” (refers to: DBF4 mRNA).
It gave -1.63 for “log2 fold change” (refers to: PKN3 mRNA).
refers to: WASL mRNA — “log2 fold change”: 1.01.
For refers to: ASAH2 mRNA: “log2 fold change” read 0.818.
refers to: ABCC9 mRNA — “log2 fold change”: 1.64.
refers to: PCNA mRNA — “log2 fold change”: -1.38.
refers to: H2AC6 mRNA — “log2 fold change”: 1.69.
It gave 1.6 for “log2 fold change” (refers to: GCH1 mRNA).

Sample 2
SMILES: CS(=O)(=O)c1ccc(OC/C(=C/F)CN)cc1.Cl
MAOB: Amine oxidase [flavin-containing] B (MAOB, Homo sapiens, UniProt P27338)
Chain of UniProt P27338 (whole entry, looked up): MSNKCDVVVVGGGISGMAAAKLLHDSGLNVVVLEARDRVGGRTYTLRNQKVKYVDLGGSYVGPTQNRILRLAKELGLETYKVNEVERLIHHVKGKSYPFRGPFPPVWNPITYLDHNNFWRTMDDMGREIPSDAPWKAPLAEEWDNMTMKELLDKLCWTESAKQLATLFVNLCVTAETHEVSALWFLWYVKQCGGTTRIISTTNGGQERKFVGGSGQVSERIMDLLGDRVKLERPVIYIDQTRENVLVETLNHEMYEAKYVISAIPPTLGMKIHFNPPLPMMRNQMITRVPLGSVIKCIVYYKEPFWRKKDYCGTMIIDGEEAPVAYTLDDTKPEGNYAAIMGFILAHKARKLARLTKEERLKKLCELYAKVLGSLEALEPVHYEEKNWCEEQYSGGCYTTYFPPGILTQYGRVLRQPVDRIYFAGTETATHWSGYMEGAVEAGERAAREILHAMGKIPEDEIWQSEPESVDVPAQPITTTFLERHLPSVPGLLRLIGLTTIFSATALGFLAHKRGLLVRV
MPO: Myeloperoxidase (MPO, Homo sapiens, UniProt P05164)
Chain of UniProt P05164 (whole entry, looked up): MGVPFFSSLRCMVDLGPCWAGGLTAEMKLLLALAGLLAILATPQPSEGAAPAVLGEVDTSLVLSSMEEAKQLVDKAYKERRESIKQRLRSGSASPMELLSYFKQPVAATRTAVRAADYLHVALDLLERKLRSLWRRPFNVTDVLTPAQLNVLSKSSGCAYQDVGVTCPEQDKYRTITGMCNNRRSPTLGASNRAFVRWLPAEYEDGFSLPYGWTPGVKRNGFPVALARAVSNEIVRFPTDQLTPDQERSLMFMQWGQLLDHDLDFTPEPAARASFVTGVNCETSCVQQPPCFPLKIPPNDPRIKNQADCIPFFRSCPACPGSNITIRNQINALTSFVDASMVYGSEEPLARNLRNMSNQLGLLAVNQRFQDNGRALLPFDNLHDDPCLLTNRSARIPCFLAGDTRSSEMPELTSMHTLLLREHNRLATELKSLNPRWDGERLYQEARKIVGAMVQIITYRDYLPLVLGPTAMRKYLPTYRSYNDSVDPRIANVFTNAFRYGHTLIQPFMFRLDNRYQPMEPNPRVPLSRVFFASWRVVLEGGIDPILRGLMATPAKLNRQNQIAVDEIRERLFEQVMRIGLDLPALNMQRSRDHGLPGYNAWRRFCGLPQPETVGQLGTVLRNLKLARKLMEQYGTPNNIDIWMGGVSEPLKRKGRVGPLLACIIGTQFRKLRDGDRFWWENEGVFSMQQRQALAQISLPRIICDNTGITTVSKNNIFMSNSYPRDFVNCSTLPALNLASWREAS
The inhibition was 5.57% and 3.74% and -1.72% (MAOB; enzyme activity, inhibitor; 1.5 nM).
For MPO; enzyme activity, inhibitor, fluorescence; 4.6 nM: inhibition read -10.1% and -1.07% and -1.18%.
MAOB; enzyme activity, inhibitor; 1.111 µM — inhibition: 0.195% and -0.111%.
Amine oxidase [copper-containing] 3 (Rattus norvegicus, UniProt O08590); rat adipose tissue; 5.081e-05 µM — inhibition: -12.9%.
It gave -4.05% and 3.82% and 1.34% for inhibition (MPO; enzyme activity, inhibitor, fluorescence; 0.1235 µM).
Amine oxidase [copper-containing] 3 (Mus musculus, UniProt O70423); mouse adipose tissue; 0.0041 µM — inhibition: 62.6%.
Amine oxidase [copper-containing] 3 (Rattus norvegicus, UniProt O08590); rat adipose tissue; 0.0041 µM — inhibition: 71.7%.
It gave -2.38% and -6.16% and -1.73% for inhibition (MAOB; enzyme activity, inhibitor; 15.2 nM).

Sample 3
SMILES: CC[C@@]1(c2cccc(C(F)(F)F)c2)C2=C(Nc3n[nH]cc31)[C@H](F)C(C)(C)CC2=O (single isomer, unassigned)
Tested at: 1 µM
Ephrin type-A receptor 8 (EPHA8, Homo sapiens, UniProt P29322); kinase binding, KINOMEscan; baseline: DMSO control — remaining binding: 100%.
G protein-coupled receptor kinase 4 (GRK4, Homo sapiens, UniProt P32298); binding, competition with immobilised ligand — remaining binding: 100%.
The remaining binding was 100% (Serine/threonine-protein kinase LATS2 (LATS2, Homo sapiens, UniProt Q9NRM7); binding, competition with immobilised ligand).
Serine/threonine-protein kinase mTOR (MTOR, Homo sapiens, UniProt P42345); binding, competition with immobilised ligand — remaining binding: 45%.
It gave 95% for remaining binding (cGMP-dependent protein kinase 2 (PRKG2, Homo sapiens, UniProt Q13237); kinase binding, KINOMEscan; baseline: DMSO control).
It gave 100% for remaining binding (Tyrosine-protein kinase HCK (HCK, Homo sapiens, UniProt P08631); binding, competition with immobilised ligand).
It gave 100% for remaining binding (Serine/threonine-protein kinase PAK 6 (PAK6, Homo sapiens, UniProt Q9NQU5); binding, competition with immobilised ligand).
It gave 77% for remaining binding (Tyrosine-protein kinase JAK2, JH1 (JAK2, Homo sapiens, UniProt O60674); binding, competition with immobilised ligand).
The remaining binding was 100% (Mitogen-activated protein kinase kinase kinase 12 (MAP3K12, Homo sapiens, UniProt Q12852); binding, competition with immobilised ligand).
The remaining binding was 100% (Myosin-IIIb (MYO3B, Homo sapiens, UniProt Q8WXR4); kinase binding, KINOMEscan; baseline: DMSO control).
It gave 100% for remaining binding (Megakaryocyte-associated tyrosine-protein kinase (MATK, Homo sapiens, UniProt P42679); binding, competition with immobilised ligand).
Aurora kinase B (AURKB, Homo sapiens, UniProt Q96GD4); binding, competition with immobilised ligand — remaining binding: 90%.
It gave 87% for remaining binding (Calcium/calmodulin-dependent protein kinase kinase 1 (CAMKK1, Homo sapiens, UniProt Q8N5S9); binding, competition with immobilised ligand).
For Ribosomal protein S6 kinase alpha-4, C-terminal kinase domain (RPS6KA4, Homo sapiens, UniProt O75676); binding, competition with immobilised ligand: remaining binding read 100%.
Proto-oncogene tyrosine-protein kinase receptor Ret (RET, Homo sapiens, UniProt P07949, V804L); binding, competition with immobilised ligand — remaining binding: 100%.
For Serine/threonine-protein kinase LATS1 (LATS1, Homo sapiens, UniProt O95835); binding, competition with immobilised ligand: remaining binding read 96%.

Sample 4
Structure (SMILES): C[C@@H]1CN(c2ccc(-c3cc(C(=O)NCCOCCOCCOCCOCCNC(=O)Cn4cc(-c5[nH]cc(C(=O)N[C@@H](CC(N)=O)c6ccc(F)c(Cl)c6)c5-c5ccc(Cl)cc5F)cn4)ccc3F)cc2NC(=O)c2c[nH]c(=O)cc2C(F)(F)F)C[C@H](C)N1C
Read-out: thermal unfolding
Method: differential scanning fluorimetry
Tested at: 5.5 µM
Reading: higher = more unfolded
DCAF1: DDB1- and CUL4-associated factor 1 (DCAF1, Homo sapiens, UniProt Q9Y4B6)
Chain of UniProt Q9Y4B6 (whole entry, looked up): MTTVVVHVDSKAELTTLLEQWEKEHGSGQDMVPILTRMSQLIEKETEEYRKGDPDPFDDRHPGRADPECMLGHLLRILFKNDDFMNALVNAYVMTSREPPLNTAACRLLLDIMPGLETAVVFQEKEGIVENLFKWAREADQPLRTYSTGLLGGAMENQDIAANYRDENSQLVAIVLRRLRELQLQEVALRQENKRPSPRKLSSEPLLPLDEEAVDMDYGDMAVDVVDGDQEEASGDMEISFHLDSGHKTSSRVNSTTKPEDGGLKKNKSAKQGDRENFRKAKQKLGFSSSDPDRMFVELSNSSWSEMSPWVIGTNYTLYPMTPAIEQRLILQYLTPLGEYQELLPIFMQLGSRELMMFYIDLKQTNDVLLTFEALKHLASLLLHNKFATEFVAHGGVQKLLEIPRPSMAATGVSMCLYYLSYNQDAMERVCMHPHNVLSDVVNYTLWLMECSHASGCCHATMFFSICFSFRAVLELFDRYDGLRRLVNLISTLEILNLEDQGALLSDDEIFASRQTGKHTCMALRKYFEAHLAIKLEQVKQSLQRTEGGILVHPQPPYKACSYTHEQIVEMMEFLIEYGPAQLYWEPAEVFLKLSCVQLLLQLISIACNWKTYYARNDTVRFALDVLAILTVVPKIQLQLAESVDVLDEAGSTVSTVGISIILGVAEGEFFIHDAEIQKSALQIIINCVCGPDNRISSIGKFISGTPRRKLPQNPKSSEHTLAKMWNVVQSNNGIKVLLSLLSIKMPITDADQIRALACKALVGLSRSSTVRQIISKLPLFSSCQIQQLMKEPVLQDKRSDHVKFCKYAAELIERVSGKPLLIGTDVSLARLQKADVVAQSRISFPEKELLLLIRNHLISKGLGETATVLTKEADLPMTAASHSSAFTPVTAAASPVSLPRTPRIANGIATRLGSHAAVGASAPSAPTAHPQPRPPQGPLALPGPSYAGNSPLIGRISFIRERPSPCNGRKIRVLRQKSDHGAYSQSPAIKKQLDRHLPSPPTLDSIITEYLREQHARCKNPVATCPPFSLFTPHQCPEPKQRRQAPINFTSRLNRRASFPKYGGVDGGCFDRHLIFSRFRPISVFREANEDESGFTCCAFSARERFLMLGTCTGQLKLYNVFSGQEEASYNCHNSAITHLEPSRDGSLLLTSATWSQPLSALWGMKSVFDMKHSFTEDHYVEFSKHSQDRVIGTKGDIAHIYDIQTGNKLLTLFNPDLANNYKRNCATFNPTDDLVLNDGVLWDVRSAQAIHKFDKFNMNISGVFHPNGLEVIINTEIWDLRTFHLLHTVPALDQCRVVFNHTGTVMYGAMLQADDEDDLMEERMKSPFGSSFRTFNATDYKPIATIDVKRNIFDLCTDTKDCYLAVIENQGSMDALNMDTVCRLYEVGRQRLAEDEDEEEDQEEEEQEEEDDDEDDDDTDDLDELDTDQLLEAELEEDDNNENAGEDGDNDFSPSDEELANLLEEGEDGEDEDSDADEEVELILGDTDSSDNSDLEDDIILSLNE
WDR5: WD repeat-containing protein 5 (WDR5, Homo sapiens, UniProt P61964)
DCAF1; 38.8 °C — “SYPRO Orange fluorescence”: 9870 a.u.
DCAF1; 82.01 °C — “SYPRO Orange fluorescence”: 42500 a.u.
WDR5; 54.01 °C — “SYPRO Orange fluorescence”: 14100 a.u.
The “SYPRO Orange fluorescence” was 41500 a.u. (DCAF1; 83.21 °C).
For WDR5; 26.4 °C: “SYPRO Orange fluorescence” read 14700 a.u.
It gave 55000 a.u. for “SYPRO Orange fluorescence” (DCAF1; 69.41 °C).
The “SYPRO Orange fluorescence” was 12900 a.u. (WDR5; 56.21 °C).
For WDR5; 78.21 °C: “SYPRO Orange fluorescence” read 17900 a.u.
The “SYPRO Orange fluorescence” was 12000 a.u. (DCAF1; 44.4 °C).
It gave 55300 a.u. for “SYPRO Orange fluorescence” (DCAF1; 69.01 °C).
WDR5; 71.41 °C — “SYPRO Orange fluorescence”: 7300 a.u.
